Experimental data pooled from the literature.
Every numbered part comes from another study and shows a few of its results, in no order. Numbers after ± are the reported error. In brackets after ≈: the same amount, converted by molar mass.

Sample 1 — organism: SARS-CoV-2 Wuhan spike VSV pseudovirus; effect on: pseudovirus entry; tested at: concentration not given
With CCn1cccc1-c1nc(C)c(C(=O)NCc2cc(OC)c(OC)c(OC)c2)s1 the inhibition was 36%.
For Cc1ccc(N2CCN(C(=O)CC3(CC4=Nc5ccccc5S(=O)(=O)N4)CCCC3)CC2)c(C)c1, the inhibition was 40%.
Cc1cccc(NC(=O)c2cc3cc(N(C)S(=O)(=O)c4ccccc4)ccc3s2)c1 has an inhibition of 37%.
The inhibition of COc1ccc(C(=O)N2c3cc(CNC(=O)c4ccnn4C)ccc3CC2C)cc1 (stereo not drawn) is reported as 39%.
For c1nc(Sc2nnc(NCC3CCCO3)s2)c2ccsc2n1 (stereo not drawn), the inhibition was 39%.
The inhibition of CC(C)CC(=O)N1C2CCC1c1cnc(-c3ccc(F)cc3)nc1C2 (stereo not drawn) is reported as 45%.
For COc1ccc(-c2noc(N3CCC(C(=O)NCC4CCN(Cc5ccc(C)cc5)C4)CC3)n2)cc1 (stereo not drawn), the inhibition was 43%.
O=C1CN(C(=O)COc2ccc(C3SCCCS3)cc2)CCN1 gave an inhibition of 40%.
O=C(NCc1ccccc1Cn1cccn1)c1cnc(S)n1-c1ccccc1 gave an inhibition of 42%.
COc1cc(/C=C2/CCS(=O)(=O)c3ccccc3C2=O)cc(OC)c1 gave an inhibition of 42%.
C=C1C(=O)O[C@H]2[C@H]1CC/C(C)=C\CC[C@@]1(C)O[C@@H]21 has an inhibition of 42%.
With CCS(=O)(=O)c1ncc(Cl)c(C(=O)Nc2cc(C)ccc2C)n1 the inhibition was 44%.
The inhibition of Cc1oc2ncnc(N3CCCC(C(=O)NCCCc4ccccc4)C3)c2c1C (stereo not drawn) is reported as 43%.
The inhibition of Cc1sc2nc(CN3CCC(C)CC3)nc(-n3ccnc3)c2c1C is reported as 37%.
COc1cccc2c1C(=O)c1c(O)c3c(c(O)c1C2=O)C[C@@](O)(C(=O)CO)C[C@@H]3O[C@H]1C[C@H](N)C(O)[C@H](C)O1 (stereo partly drawn) has an inhibition of 52%.
With CN(C)c1ccc(C2NC(=O)c3ccccc3N2)cc1[N+](=O)[O-] (stereo not drawn) the inhibition was 40%.
Cc1cc2c3c([nH]c2cc1S(=O)(=O)N1CCN(Cc2ccccc2)CC1)CCCC3=O gave an inhibition of 42%.
CC(C)c1cc(C(=O)NCc2ccccc2CN2CCCC2=O)n(C)n1 gave an inhibition of 43%.
O=C(NC1CC(=O)N(CCCc2ccccc2)C1)c1ccsc1 (stereo not drawn) has an inhibition of 39%.
Cc1nn(C)c(C)c1CNC(=O)c1ccc(-c2nc(CN3CCN(c4ccccc4)CC3)c(C)o2)cc1 gave an inhibition of 40%.
The inhibition of COc1nccnc1-c1ccnc2[nH]ccc12 is reported as 43%.
CC1CCN(CCCNC(=O)c2ccc(-c3cc(N4CCCC4)ncn3)cc2)CC1 has an inhibition of 41%.
CS(=O)(=O)c1ncc(Cl)c(C(=O)Nc2ccccc2Cc2ccccc2)n1 has an inhibition of 48%.
Cc1nn(-c2ccc(-c3noc(C4CC4)n3)cc2)cc1C(=O)Nc1ccc2c(c1)OCCO2 has an inhibition of 45%.
The inhibition of COc1ccc(CCNc2ncnc3c2oc2ccccc23)cc1OC is reported as 37%.

Other studies, line by line
rep main protease: Replicase polyprotein 1ab, main protease (rep, Severe acute respiratory syndrome coronavirus 2, UniProt P0DTD1)
rep nsp12 RdRp: Replicase polyprotein 1ab, nsp12 RdRp (rep, Severe acute respiratory syndrome coronavirus 2, UniProt P0DTD1)
rep nsp14: Replicase polyprotein 1ab, nsp14 (rep, Severe acute respiratory syndrome coronavirus 2, UniProt P0DTD1)
rep papain-like protease: Replicase polyprotein 1ab, papain-like protease (rep, Severe acute respiratory syndrome coronavirus 2, UniProt P0DTD1)
CC#CCn1c(N2CCC[C@@H](N)C2)nc2c1c(=O)n(Cc1nc(C)c3ccccc3n1)c(=O)n2C has an IC50 of 1920 nM (SARS-CoV-2; viral replication; Vero E6, B.1.351 (Beta); 48 h).
COc1ccc(-c2cc(=O)c3c(OC)c(OC)c(OC)cc3o2)cc1 has an inhibition of -28.8% (rep main protease; enzyme activity, inhibitor, FRET; 50 µM).
For C=CCn1c(CSc2ccccc2[N+](=O)[O-])n[nH]c1=S, “dsRNA unwinding activity” read “inhibited” (Replicase polyprotein 1ab, nsp13 R392C (rep, Severe acute respiratory syndrome coronavirus 2, UniProt P0DTD1, R5716C); inhibitor, gel; SARS-CoV-2; concentration not given).
Fc1cccc(-n2cnc3c(NCc4nc5c(F)c(F)ccc5[nH]4)nc(N4CCOCC4)nc32)c1 gave a BLI response of 0 nm (rep nsp12 RdRp; binding, biolayer interferometry; concentration not given).
The MIC of CO[C@H]1/C=C/O[C@@]2(C)Oc3c(C)c(O)c4c(O)c(c(/C=N/N5CCN(C)CC5)c(O)c4c3C2=O)NC(=O)/C(C)=C\C=C\[C@H](C)[C@H](O)[C@@H](C)[C@@H](O)[C@@H](C)[C@H](OC(C)=O)[C@@H]1C is reported as 0.008 µg/mL (≈ 0.00972 µM) (Mycobacterium tuberculosis; H37Rv katG deletion).
The IC50 of CCCCCCC#Cc1cncc(-c2nnc(SCc3cc([N+](=O)[O-])cc([N+](=O)[O-])c3)n2C)c1 is reported as > 5000 nM (Mycobacterium tuberculosis; MABA; Erdman M3 FbiC P367S mutant).
CCC(CC)[C@H](NC(C)=O)[C@@H]1[C@H](O)[C@@H](C(=O)O)C[C@H]1N=C(N)N has an IC50 of 131 ± 13.7 nM (neuraminidase (Influenza B virus, UniProt C0LT34, I221N)).
NNC(=O)c1ccncc1 gave an MIC of > 2 µg/mL (Mycobacterium tuberculosis; H37Rv katG deletion).
The IC50 of CN(C)C(=O)COC(=O)Cc1ccc(OC(=O)c2ccc(NC(=N)N)cc2)cc1 is reported as 90 nM (Calu-3; pseudoparticle entry; SARS-CoV-2 spike pseudotyped particles).
For O=C(NC1CCN(c2ncnc3[nH]cnc23)CC1)c1cccc(S(=O)(=O)N2CCCC2)c1, the inhibition was 85.1% (rep nsp14; NSP14 enzyme activity, inhibitor; 200 µM).
OC[C@H]1O[C@@H](n2cnc3c(N[C@@H]4CCOC4)ncnc32)[C@H](O)[C@@H]1O has an EC50 of 2860 ± 110 nM (SARS-CoV-2; infectious virus yield; Vero C1008, Omicron BA.1; 48 h).
The EC50 of C[C@@H](OC(C)(C)C)[C@H](NC(=O)OCc1ccccc1)C(=O)N[C@@H](CC1CCCCC1)C(=O)NN(CCC(N)=O)C(=O)C(Cl)Cl is reported as 10 nM (SARS-CoV-2; viral replication; delta variant hCoV-19/USA/MD-HP05647/2021).
CC(C)(C)[C@H](NC(=O)C(F)(F)F)C(=O)N1C[C@H]2[C@@H]([C@H]1C(=O)N[C@H](C#N)C[C@@H]1CCNC1=O)C2(C)C gave an EC50 of 3820 nM (SARS-CoV-2; replicon replication; Mpro L50F E166V replicon).
The MIC of CCc1cc(=O)c2c(OCC(O)CN3CCC(C)CC3)c3ccoc3c(OC)c2o1 (stereo not drawn) is reported as 16 µg/mL (≈ 38.5 µM) (Mycobacterium tuberculosis; Alamar blue; 22/22, SIRE and linezolid resistant; 21 days, 37 °C).
C=C(CC[C@@H](C(=O)O)[C@H]1[C@H](O)C[C@@]2(C)C3=CC[C@H]4C(C)(C)C(=O)CC[C@]4(C)C3=CC[C@]12C)C(C)C gave an activity of 23.5% (rep papain-like protease; concentration not given, C111S mutant; relative to: positive control).
CCOc1ccccc1OC(c1ccccc1)C1CNCCO1 (stereo not drawn) gave an activation of > 15% (rep main protease; enzyme activity, activator, FRET peptide cleavage; SARS-CoV-2; 1 mM).
The inhibition of COc1ccc(-c2cc(=O)c3c(O)c(OC)c(O)cc3o2)cc1 is reported as -6.63% (rep main protease; protease activity, inhibitor, FRET; 50 µM).
CC(C)CN(C[C@@H](O)[C@H](Cc1ccccc1)NC(=O)O[C@H]1CCOC1)S(=O)(=O)c1ccc(N)cc1 has an activity of 17.4% (rep papain-like protease; concentration not given, C111S mutant; relative to: positive control).
With CCc1cc(=O)c2c(OCC(O)CN(CC)CC)c3ccoc3c(OC)c2o1 (stereo not drawn) the MIC was 32 µg/mL (≈ 82.2 µM) (Mycobacterium tuberculosis; Alamar blue; 22/22, SIRE and linezolid resistant; 21 days, 37 °C).
O=C(NC1CCN(c2ncnc3[nH]cnc23)CC1)c1cccc(S(=O)(=O)N2CCC2)c1 has an inhibition of 11% (rep nsp14; NSP14 enzyme activity, inhibitor; 0.1953 µM).
The IC50 of N[C@@H](CC(=O)N1CCn2c(nnc2C(F)(F)F)C1)Cc1cc(F)c(F)cc1F is reported as 1640 nM (SARS-CoV-2; viral replication; Vero E6, B.1.1.7 (Alpha); 48 h).
With CC(C)=CCNc1ncnc2c1ncn2[C@@H]1O[C@H](CO)[C@@H](O)[C@H]1O the EC90 was 1500 ± 60 nM (SARS-CoV-2; viral replication; Vero C1008, Omicron BA.1; 48 h, reduction of infectious virus).
CN(C)CCn1c(C(=O)N2CCN(c3ccccc3Cl)CC2)c(C(c2ccc(O)cc2)c2ccc(O)cc2)c2ccccc21 has an EC50 of 410 nM (SARS-CoV-2; viral replication; Huh-7-ACE2, USA-WA1/2020; 24 h).
Cc1cc([N+](=O)[O-])c(NS(=O)(=O)c2cccc(C(=O)O)c2)cc1-c1cccnc1 has a BLI response of 0.01 nm (rep nsp12 RdRp; binding, biolayer interferometry; concentration not given).
NCC[C@H](O)C(=O)N[C@@H]1C[C@H](N)[C@@H](O[C@H]2O[C@H](CN)[C@@H](O)[C@H](O)[C@H]2O)[C@H](O)[C@H]1O[C@H]1O[C@H](CO)[C@@H](O)[C@H](N)[C@H]1O gave an MIC80 of 0.85 µM (≈ 0.498 µg/mL) (Mycobacterium tuberculosis; H37Rv mc2-6206 MmpL3 G253E).
The EC50 of CC(C)(C)[C@H](NC(=O)C(F)(F)F)C(=O)N1C[C@H]2[C@@H]([C@H]1C(=O)N[C@H](C#N)C[C@@H]1CCNC1=O)C2(C)C is reported as 68 nM (SARS-CoV-2; viral replication; A549, delta variant hCoV-19/USA/MD-HP05647/2021; 72 h).

Excerpt of the above (sample 1):
For Cc1ccc(N2CCN(C(=O)CC3(CC4=Nc5ccccc5S(=O)(=O)N4)CCCC3)CC2)c(C)c1, the inhibition was 40%.
COc1cc(/C=C2/CCS(=O)(=O)c3ccccc3C2=O)cc(OC)c1 gave an inhibition of 42%.
C=C1C(=O)O[C@H]2[C@H]1CC/C(C)=C\CC[C@@]1(C)O[C@@H]21 has an inhibition of 42%.
CC1CCN(CCCNC(=O)c2ccc(-c3cc(N4CCCC4)ncn3)cc2)CC1 has an inhibition of 41%.
Cc1nn(-c2ccc(-c3noc(C4CC4)n3)cc2)cc1C(=O)Nc1ccc2c(c1)OCCO2 has an inhibition of 45%.
With CCS(=O)(=O)c1ncc(Cl)c(C(=O)Nc2cc(C)ccc2C)n1 the inhibition was 44%.
The inhibition of Cc1oc2ncnc(N3CCCC(C(=O)NCCCc4ccccc4)C3)c2c1C (stereo not drawn) is reported as 43%.
CS(=O)(=O)c1ncc(Cl)c(C(=O)Nc2ccccc2Cc2ccccc2)n1 has an inhibition of 48%.
Cc1cc2c3c([nH]c2cc1S(=O)(=O)N1CCN(Cc2ccccc2)CC1)CCCC3=O gave an inhibition of 42%.
